Published values collected from several papers.
Several values in a cell are separate wells, animals, samples, runs or records. Numbers after ± are the reported error.
CYP3A4: Cytochrome P450 3A4 (CYP3A4, Homo sapiens, UniProt P08684)
Chain of UniProt P08684 (whole entry, looked up): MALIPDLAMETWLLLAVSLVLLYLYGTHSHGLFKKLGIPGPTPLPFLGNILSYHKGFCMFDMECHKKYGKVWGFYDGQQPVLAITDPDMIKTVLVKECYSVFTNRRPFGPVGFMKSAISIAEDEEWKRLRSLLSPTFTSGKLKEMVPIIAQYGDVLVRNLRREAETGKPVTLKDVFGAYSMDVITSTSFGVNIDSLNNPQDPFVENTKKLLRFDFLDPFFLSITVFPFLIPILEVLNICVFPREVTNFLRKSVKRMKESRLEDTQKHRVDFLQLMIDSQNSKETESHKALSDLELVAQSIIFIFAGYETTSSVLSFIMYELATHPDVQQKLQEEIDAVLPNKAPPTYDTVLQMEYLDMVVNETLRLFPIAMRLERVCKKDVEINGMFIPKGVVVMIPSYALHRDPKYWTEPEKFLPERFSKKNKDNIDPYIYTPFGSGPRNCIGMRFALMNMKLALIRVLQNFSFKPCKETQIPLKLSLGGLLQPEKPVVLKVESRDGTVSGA
ABCG2: Broad substrate specificity ATP-binding cassette transporter ABCG2 (ABCG2, Homo sapiens, UniProt Q9UNQ0)
Chain of UniProt Q9UNQ0 (whole entry, looked up): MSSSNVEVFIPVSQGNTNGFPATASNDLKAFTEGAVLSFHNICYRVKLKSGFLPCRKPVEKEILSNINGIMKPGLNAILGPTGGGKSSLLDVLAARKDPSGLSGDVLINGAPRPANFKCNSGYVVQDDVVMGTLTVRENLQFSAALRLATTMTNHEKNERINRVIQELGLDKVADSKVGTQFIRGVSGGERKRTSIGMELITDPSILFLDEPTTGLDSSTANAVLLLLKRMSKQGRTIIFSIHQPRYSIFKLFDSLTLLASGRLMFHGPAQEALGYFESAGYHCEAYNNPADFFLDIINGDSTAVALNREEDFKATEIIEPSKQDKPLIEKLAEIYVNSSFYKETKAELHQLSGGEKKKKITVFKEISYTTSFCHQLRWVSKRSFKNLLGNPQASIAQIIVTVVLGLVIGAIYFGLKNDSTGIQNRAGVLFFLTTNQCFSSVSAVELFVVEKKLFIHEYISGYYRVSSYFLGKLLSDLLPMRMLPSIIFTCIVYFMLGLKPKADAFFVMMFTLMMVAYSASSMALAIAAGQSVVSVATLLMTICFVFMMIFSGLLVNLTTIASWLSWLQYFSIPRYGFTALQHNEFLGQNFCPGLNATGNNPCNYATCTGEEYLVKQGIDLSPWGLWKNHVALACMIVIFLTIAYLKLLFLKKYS
CYP2A6: Cytochrome P450 2A6 (CYP2A6, Homo sapiens, UniProt P11509)
Chain of UniProt P11509 (whole entry, looked up): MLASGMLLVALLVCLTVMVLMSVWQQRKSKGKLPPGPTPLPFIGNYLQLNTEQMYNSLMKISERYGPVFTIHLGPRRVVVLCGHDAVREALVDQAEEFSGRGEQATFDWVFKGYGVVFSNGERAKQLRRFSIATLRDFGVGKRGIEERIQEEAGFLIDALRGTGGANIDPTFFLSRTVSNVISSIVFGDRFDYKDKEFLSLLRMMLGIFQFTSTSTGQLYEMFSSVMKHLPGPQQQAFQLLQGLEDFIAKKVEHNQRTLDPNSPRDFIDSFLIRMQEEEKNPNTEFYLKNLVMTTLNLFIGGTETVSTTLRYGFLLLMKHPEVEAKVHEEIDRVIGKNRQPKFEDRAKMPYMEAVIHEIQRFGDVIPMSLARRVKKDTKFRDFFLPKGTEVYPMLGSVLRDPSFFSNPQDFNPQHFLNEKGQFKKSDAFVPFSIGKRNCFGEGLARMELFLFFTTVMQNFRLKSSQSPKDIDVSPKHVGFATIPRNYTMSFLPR
KCNH2: Voltage-gated inwardly rectifying potassium channel KCNH2 (KCNH2, Homo sapiens, UniProt Q12809)
Chain of UniProt Q12809 (whole entry, looked up): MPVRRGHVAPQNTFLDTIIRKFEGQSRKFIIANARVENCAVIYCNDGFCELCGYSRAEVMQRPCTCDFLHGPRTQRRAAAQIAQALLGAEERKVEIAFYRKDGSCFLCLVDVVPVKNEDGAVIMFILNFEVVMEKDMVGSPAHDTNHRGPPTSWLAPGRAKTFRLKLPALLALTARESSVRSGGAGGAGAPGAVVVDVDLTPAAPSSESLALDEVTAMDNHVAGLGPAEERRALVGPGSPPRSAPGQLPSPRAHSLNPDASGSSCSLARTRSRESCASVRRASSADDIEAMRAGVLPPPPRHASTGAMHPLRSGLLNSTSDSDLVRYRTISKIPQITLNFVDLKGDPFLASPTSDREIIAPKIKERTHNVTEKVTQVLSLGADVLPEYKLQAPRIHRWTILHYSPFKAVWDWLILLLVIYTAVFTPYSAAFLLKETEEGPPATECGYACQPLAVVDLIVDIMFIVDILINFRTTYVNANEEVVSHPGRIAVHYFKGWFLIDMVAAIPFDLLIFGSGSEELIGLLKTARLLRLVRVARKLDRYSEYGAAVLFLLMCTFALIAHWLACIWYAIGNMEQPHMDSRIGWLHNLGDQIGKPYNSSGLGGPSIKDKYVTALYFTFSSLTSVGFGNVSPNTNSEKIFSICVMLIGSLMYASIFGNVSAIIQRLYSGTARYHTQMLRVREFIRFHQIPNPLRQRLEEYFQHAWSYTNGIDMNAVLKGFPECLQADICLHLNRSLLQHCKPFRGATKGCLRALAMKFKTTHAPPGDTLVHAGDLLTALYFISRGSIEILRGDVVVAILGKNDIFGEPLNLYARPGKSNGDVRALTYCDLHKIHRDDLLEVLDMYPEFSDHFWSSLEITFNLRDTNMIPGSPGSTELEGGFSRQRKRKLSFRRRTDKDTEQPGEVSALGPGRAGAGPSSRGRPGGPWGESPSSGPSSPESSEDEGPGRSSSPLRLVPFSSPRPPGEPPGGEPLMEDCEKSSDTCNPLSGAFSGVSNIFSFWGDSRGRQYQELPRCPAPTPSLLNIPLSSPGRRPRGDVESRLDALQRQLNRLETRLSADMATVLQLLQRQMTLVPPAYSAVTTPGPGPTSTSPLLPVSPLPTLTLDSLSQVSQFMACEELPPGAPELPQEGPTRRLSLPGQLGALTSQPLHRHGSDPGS
Chain of UniProt Q53GS9 (whole entry, looked up): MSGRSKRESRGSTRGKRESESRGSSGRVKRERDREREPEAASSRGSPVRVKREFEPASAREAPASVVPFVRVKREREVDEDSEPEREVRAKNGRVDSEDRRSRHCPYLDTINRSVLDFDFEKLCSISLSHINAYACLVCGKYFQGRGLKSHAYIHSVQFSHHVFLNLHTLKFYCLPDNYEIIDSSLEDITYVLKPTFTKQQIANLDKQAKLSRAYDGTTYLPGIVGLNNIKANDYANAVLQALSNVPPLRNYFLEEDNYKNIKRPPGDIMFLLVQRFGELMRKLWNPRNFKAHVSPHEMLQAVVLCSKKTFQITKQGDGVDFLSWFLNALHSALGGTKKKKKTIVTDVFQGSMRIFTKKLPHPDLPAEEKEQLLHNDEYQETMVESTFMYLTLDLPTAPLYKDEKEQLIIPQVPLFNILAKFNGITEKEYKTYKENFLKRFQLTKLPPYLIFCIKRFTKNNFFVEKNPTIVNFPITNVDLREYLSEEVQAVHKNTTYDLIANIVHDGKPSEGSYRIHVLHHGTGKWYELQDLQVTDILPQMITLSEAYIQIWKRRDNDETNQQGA
Chain of UniProt Q9Y6E0 (whole entry, looked up): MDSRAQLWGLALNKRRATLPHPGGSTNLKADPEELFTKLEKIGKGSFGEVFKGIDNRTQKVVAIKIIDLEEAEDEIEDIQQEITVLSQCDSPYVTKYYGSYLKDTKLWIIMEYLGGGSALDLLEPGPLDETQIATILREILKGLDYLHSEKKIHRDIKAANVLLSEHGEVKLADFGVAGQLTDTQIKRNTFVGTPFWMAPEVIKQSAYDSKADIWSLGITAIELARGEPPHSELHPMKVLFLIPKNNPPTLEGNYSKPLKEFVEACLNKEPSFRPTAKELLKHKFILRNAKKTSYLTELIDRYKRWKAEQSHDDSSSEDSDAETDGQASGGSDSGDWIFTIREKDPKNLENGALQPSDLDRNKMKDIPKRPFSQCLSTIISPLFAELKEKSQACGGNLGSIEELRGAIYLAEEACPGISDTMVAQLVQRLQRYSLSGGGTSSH
Chain of UniProt Q70CQ1 (whole entry, looked up): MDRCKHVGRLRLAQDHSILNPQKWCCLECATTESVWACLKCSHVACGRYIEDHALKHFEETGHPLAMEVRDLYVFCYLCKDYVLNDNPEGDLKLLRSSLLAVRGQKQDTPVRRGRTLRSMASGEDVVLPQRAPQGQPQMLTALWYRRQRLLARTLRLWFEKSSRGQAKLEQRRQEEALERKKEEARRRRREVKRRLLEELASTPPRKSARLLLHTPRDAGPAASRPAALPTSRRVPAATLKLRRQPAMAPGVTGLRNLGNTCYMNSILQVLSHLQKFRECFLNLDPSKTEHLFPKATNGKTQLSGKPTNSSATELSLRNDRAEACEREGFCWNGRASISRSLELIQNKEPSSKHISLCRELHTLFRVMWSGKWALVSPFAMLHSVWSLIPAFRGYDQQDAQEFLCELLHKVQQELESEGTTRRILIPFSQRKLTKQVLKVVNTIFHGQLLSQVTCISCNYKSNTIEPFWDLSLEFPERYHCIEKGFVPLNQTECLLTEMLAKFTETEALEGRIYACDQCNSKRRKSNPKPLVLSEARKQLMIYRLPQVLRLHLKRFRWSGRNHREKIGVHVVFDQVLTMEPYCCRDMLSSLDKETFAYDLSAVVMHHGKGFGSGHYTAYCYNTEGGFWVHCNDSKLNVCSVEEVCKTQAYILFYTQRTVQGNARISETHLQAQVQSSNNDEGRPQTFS

| Structure (SMILES) | tested on | assay | system | conditions | scale | quantity | value |
| --- | --- | --- | --- | --- | --- | --- | --- |
| [H]/N=C(/N)c1ccc(NCc2nc3cc(C(=O)N(CCC(=O)O)c4ccccn4)ccc3n2C)cc1 | P-glycoprotein | substrate | healthy human, plasma | oral, adjusted geometric mean, with: vepdegestrant 200 mg | relative to: with vepdegestrant over alone | Cmax ratio | 192% |
| Cc1cc(Nc2ncnc3ccc(NC4=NC(C)(CO)CO4)cc23)ccc1Oc1ccn2ncnc2c1 (centres unmarked) | CYP3A4 | – | healthy volunteers, plasma | oral, 300 mg tucatinib, day 1 | – | %AUCextrap, median | 5.76% |
| CC(C)(C)N1Cc2cccc(n2)CN(C(C)(C)C)Cc2cccc(n2)C1 | Cu(II) complex | UV-vis titration | 0.1 M NaCl | 25 °C, bound water deprotonation | – | pKa | 9.45 |
| C/C(O)=C(\C#N)C(=O)Nc1ccc(C(F)(F)F)cc1 | ABCG2 | – | Caco-2 | 1 µM, 2 h, pH 7.4, with: 2 µM Ko143 | – | efflux ratio | 0.681 |
| COc1ccc2c3c([nH]c2c1)[C@H](CC(C)C)N1C(=O)[C@H](CC(=O)NC(C)C)NC(=O)[C@@H]1C3 | ABCG2 | inhibitor, refers to: protoporphyrin IX | A549 | 0.5 µM, 2 h, with: 1 mM ALA | – | inhibition | 93.2% and 62% and 73.6% and 76.7% |
| N#C[C@H](C[C@@H]1CCCNC1=O)NC(=O)[C@H](CC1CC1)NC(=O)c1cc2cccc(Cl)c2[nH]1 | CYP2A6 | NADPH metabolic stability | – | 2 µM, pH 7.4, 100 pmol/mL enzyme | – | intrinsic clearance | < 0.054 µL/min/pmol |
| O=c1ccn([C@H]2C[C@H](O)[C@@H](COP(=O)(O)O)O2)c(=O)[nH]1 | – | binding, equilibrium dialysis LC-MS | – | 5 µM, thermostabilized A2AR-BRIL construct | relative to: no-protein control, direction not given | z-scored log2 fold change | 0.306 |
| CCc1nc2c(C)cc(N3CCN(CC(=O)N4CC(O)C4)CC3)cn2c1N(C)c1nc(-c2ccc(F)cc2)c(C#N)s1 | CYP3A4 human | enzyme induction, inducer, in vitro | – | – | – | EC50 | 3 µM |
| O=C(O)CCc1ccc2c(c1)OCO2 | Ubiquitin carboxyl-terminal hydrolase 39, ZnF-UBD domain (Homo sapiens, UniProt Q53GS9) | – | – | – | – | Kd | > 1000 µM |
| CCOc1cc2ncc(C#N)c(Nc3ccc(OCc4ccccn4)c(Cl)c3)c2cc1NC(=O)/C=C/CN(C)C | ABCG2 | bidirectional transwell permeability | MDCKII cells transfected with ABCG2 | 1 µM, 1 h, pH 7.4, with: Ko143 1 µM | – | Papp A-B | 3.31 ± 0.44 ×10⁻⁶ cm/s |
| C[C@]12CCCN1CC1=NNC(=O)c3cc(F)cc4[nH]c2c1c34 | ABCG2 | substrate | membrane vesicles | 5 µM, with: ATP | – | uptake rate | 2.2 ± 0.344 pmol/min/mg |
| Cc1cc(C)c(CNC(=O)c2cc(Cl)c3c(c2C)O[C@@](C)([C@H]2CC[C@H](N(C)C)CC2)O3)c(=O)[nH]1 | alpha-1-acid glycoprotein (human) | population PK model | human, plasma | – | – | Kd | 0.221 µM |
| CN1CCN(c2ccc(Nc3ncc4cc(C#N)c(=O)n(C5CCCC5)c4n3)cc2)CC1 | Serine/threonine-protein kinase 24 (STK24, Homo sapiens, UniProt Q9Y6E0) | – | – | – | – | IC50 | 0.173 µM |
| Cc1ccnc([18F])c1-c1cccc(N2C[C@H](N3CCN(C(=O)c4nccs4)CC3)CC2=O)c1 | monoacylglycerol lipase | PET, arterial input | rhesus monkey, brain striatum | intravenous, baseline | – | VT | 8.15 mL/cm3 |
| CC(C)c1nc(N(C)S(C)(=O)=O)nc(-c2ccc(F)cc2)c1/C=C/[C@@H](O)C[C@@H](O)CC(=O)O | ABCG2 | substrate | Caco-2 | 5 µM, 2 h, with: Ko143 5 µM | relative to: B to A over A to B | efflux ratio | 21.2 |
| O=C(O)CCN1C(=O)c2ccccc2S1(=O)=O | Ubiquitin carboxyl-terminal hydrolase 49, ZnF-UBD domain (USP49, Homo sapiens, UniProt Q70CQ1) | – | – | – | – | Kd | > 1000 µM |
| Cc1cc(C)c(CNC(=O)c2cc(Cl)c3c(c2C)O[C@@](C)([C@H]2CC[C@H](N(C)C)CC2)O3)c(=O)[nH]1 | P-glycoprotein | – | Caco-2 monolayer | 100 µM, with: verapamil 100 µM | relative to: B-A over A-B | efflux ratio | 0.94 |
| CC[C@H]1[C@@H](O)[C@@H]2[C@H](CC[C@]3(C)[C@@H]([C@H](C)CCNC(=O)NS(=O)(=O)c4ccc(C(C)(C)C)cc4)CC[C@@H]23)[C@@]2(C)CC[C@@H](O)C[C@@H]12 | CYP3A4 | – | human, plasma | 10 mg, day 1, compound alone | – | Vd/F mean | 521 L |
| C=CC(=O)N1C[C@H](Nc2ncnc3[nH]ccc23)CC[C@@H]1C | CYP3A | substrate | human, plasma | oral, 30 mg single dose, cpd alone | – | AUC(0-inf) | 268 ng·h/mL |
| C[C@H]1CN(C2COC2)CCN1c1ccc(Nc2cc(-c3ccnc(N4CCn5c(cc6c5CC(C)(C)C6)C4=O)c3CO)cn(C)c2=O)nc1 | CYP2A6 | substrate | recombinant enzyme | 1 µM, 60 min | – | remaining compound | 104 ± 9% |
| CC(C)(C)NCc1ccc(Nc2ccnc3cc(Cl)ccc23)cc1O | KCNH2 | blocker, thallium flux | – | 10 µM, 30 min | relative to: control | response | < 50% |
| COc1cc(O)c(CC=C(C)C)c(O)c1C(=O)/C=C/c1ccc(O)cc1 | CYP3A4 (human) | enzyme activity, inhibitor | human liver microsomes | 10 µM, pH 7.4, with: midazolam | – | inhibition | < 10% |
| OCC(O)c1ccc(O)c(O)c1 (racemic) | – | binding, equilibrium dialysis LC-MS | – | 5 µM, thermostabilized A2AR-BRIL construct | relative to: no-protein control, direction not given | z-scored log2 fold change | 0.524 |
| S=C=NCc1ccccc1 | CYP2A6 | enzyme activity | – | concentration not given, 10 min | – | inhibition | > 75% |
| Cc1cc(Nc2ncnc3ccc(NC4=NC(C)(C)CO4)cc23)ccc1Oc1ccn2ncnc2c1 | ABCG2 | bidirectional transwell permeability | MDCKII cells transfected with ABCG2 | 1 µM, 1 h, pH 7.4 | – | Papp A-B | 2.91 ± 0.81 ×10⁻⁶ cm/s |
| COc1ccc(F)cc1C(=O)NCc1ccc(-c2nn([C@@H](C)C(F)(F)F)c(N)c2C(N)=O)cc1 | CYP3A4 | – | human, both sexes, plasma | oral, 200 mg, single dose, with: itraconazole | – | AUC(0-inf) | 123000 ng·h/mL |
| Cc1cc(/C=C/C#N)cc(C)c1Nc1ccnc(Nc2ccc(C#N)cc2)n1 | KCNH2 | hERG current, manual patch clamp | CHO stably expressing hERG | 1 µM | – | inhibition | 41.9% |
| COc1cc(O)c(CC=C(C)C)c2c1C(=O)CC(c1ccc(O)cc1)O2 (centres unmarked) | CYP3A4 (human) | enzyme activity, inhibitor | human liver microsomes | 10 µM, pH 7.4, with: midazolam | – | inhibition | < 10% |
| C[C@@H](c1ccc2nccn2c1)n1nnc2ncc(-c3cnn(C)c3)nc21 | CYP2A6 | enzyme activity, inhibitor | pooled human liver microsomes | pH 7.4, reversible inhibition | – | IC50 | > 100 µM |

For quick reference, copied from above:
| Structure (SMILES) | tested on | assay | system | conditions | scale | quantity | value |
| --- | --- | --- | --- | --- | --- | --- | --- |
| O=c1ccn([C@H]2C[C@H](O)[C@@H](COP(=O)(O)O)O2)c(=O)[nH]1 | – | binding, equilibrium dialysis LC-MS | – | 5 µM, thermostabilized A2AR-BRIL construct | relative to: no-protein control, direction not given | z-scored log2 fold change | 0.306 |
| CN1CCN(c2ccc(Nc3ncc4cc(C#N)c(=O)n(C5CCCC5)c4n3)cc2)CC1 | Serine/threonine-protein kinase 24 (STK24, Homo sapiens, UniProt Q9Y6E0) | – | – | – | – | IC50 | 0.173 µM |
| O=C(O)CCc1ccc2c(c1)OCO2 | Ubiquitin carboxyl-terminal hydrolase 39, ZnF-UBD domain (Homo sapiens, UniProt Q53GS9) | – | – | – | – | Kd | > 1000 µM |
| Cc1cc(C)c(CNC(=O)c2cc(Cl)c3c(c2C)O[C@@](C)([C@H]2CC[C@H](N(C)C)CC2)O3)c(=O)[nH]1 | P-glycoprotein | – | Caco-2 monolayer | 100 µM, with: verapamil 100 µM | relative to: B-A over A-B | efflux ratio | 0.94 |
